Experimental data of several laboratories.
Every numbered part comes from another study and shows a few of its results, in no order. Several values in a cell are separate wells, animals, samples, runs or records.
UniProt Q15831, sequence (whole entry, looked up): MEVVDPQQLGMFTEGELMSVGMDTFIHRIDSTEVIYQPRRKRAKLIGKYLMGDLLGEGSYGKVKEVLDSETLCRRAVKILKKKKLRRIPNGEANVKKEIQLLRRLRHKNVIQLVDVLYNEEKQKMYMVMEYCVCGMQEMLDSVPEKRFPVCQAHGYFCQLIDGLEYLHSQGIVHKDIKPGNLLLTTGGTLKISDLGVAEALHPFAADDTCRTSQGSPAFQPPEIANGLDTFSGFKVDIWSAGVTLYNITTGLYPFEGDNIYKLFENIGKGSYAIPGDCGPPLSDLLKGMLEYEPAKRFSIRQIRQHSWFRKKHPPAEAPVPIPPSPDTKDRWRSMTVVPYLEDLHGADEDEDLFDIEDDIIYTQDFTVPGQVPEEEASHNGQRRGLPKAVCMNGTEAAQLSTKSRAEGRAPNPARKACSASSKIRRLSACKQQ
UniProt Q8N752, sequence (whole entry, looked up): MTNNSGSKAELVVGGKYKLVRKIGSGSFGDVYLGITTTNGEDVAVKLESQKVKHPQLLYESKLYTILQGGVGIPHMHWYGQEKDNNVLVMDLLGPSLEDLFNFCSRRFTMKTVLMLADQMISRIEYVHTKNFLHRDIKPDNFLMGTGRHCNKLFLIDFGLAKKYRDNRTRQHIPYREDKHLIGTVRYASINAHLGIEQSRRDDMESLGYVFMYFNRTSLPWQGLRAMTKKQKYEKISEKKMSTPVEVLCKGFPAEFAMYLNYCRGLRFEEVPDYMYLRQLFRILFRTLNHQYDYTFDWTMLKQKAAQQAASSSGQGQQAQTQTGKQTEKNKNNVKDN
UniProt Q6ZN16, sequence (whole entry, looked up): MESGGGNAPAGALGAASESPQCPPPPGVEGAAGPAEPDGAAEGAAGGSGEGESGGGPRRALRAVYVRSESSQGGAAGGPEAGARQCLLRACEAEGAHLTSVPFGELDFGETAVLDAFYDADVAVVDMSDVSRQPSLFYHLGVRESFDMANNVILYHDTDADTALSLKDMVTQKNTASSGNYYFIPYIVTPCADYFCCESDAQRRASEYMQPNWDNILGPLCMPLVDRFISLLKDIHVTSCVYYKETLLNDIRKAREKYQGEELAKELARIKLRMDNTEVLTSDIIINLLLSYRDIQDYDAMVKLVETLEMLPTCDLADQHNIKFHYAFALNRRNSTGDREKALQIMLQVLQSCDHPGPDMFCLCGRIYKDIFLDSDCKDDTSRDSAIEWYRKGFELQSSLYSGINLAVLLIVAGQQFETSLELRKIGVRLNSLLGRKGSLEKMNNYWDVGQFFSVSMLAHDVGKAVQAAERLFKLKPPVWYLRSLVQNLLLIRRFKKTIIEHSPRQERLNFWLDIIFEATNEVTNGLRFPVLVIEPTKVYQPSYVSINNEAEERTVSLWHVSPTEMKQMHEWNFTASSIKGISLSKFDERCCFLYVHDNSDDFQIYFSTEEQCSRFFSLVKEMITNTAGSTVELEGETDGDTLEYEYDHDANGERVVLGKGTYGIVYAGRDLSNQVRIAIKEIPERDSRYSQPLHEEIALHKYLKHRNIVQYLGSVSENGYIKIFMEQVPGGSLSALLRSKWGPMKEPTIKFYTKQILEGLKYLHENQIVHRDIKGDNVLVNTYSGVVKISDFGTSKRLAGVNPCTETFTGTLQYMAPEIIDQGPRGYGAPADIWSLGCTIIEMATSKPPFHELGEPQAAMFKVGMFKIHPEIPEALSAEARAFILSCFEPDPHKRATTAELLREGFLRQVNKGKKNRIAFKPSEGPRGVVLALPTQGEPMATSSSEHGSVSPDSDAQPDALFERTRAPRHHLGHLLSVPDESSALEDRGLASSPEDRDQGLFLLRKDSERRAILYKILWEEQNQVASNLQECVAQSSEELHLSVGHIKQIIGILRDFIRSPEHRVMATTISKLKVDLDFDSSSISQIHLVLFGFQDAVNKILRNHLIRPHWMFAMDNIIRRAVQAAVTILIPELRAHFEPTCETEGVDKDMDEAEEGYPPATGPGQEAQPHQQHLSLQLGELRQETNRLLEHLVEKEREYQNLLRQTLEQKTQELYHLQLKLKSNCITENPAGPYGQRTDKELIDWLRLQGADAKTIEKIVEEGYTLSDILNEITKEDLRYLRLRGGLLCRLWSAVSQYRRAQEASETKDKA
UniProt P51956, sequence (whole entry, looked up): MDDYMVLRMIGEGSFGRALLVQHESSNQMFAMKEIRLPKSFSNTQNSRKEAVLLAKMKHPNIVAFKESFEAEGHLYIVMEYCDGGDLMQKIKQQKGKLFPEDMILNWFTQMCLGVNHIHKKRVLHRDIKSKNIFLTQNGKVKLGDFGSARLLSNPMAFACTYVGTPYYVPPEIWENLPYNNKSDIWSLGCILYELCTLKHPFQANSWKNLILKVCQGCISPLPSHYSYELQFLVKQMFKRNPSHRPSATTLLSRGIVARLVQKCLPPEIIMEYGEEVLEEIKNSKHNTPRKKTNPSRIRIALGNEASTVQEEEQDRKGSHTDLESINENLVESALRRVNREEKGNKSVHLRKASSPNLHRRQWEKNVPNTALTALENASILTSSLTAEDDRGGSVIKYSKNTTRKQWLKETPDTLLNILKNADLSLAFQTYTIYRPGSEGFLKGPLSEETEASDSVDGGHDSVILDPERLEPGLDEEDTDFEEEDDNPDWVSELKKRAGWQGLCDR

Study 1
Organism: Sarcocystis neurona
Observed: parasite growth
Concentration: 10 µM
With `Nc1nnc(-c2cccc(Cl)c2Cl)c(N)n1` the inhibition was -23.5%.
For `C/C(=C\C(=O)OCCCCCCCCC(=O)O)C[C@@H]1OC[C@H](C[C@@H]2O[C@H]2[C@@H](C)[C@H](C)O)[C@@H](O)[C@H]1O`, the inhibition was 7.4%.
With `O=C(O[C@@H]1Cc2c(O)cc(O)cc2O[C@@H]1c1cc(O)c(O)c(O)c1)c1cc(O)c(O)c(O)c1` the inhibition was -24.7%.
The inhibition of `CN1CCN(C2=Nc3ccccc3Oc3ccc(Cl)cc32)CC1` is reported as -19.9%.
`CC(=O)CCCCn1cnc2c1c(=O)n(C)c(=O)n2C` gave an inhibition of -20.2%.

Study 2
Target: Lymphokine-activated killer T-cell-originated protein kinase (PBK, Homo sapiens, UniProt Q96KB5)
Observed: enzyme activity
Action: inhibitor
Concentration: 0.5 µM
Baseline: control
Construct (Q96KB5 1-322): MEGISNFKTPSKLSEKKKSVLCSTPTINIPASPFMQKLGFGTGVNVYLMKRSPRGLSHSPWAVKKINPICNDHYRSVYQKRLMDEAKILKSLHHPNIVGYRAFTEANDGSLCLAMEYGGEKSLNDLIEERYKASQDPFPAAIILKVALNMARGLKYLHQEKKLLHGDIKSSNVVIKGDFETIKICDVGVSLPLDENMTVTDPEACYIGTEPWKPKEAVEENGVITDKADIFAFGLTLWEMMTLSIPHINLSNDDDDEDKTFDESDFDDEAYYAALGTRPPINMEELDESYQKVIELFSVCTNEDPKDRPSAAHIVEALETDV
`Nc1ncnc2n[nH]c(Nc3ccc(F)cc3)c12` gave a remaining activity of 87.6%.
`COc1ccc(C(=O)Nc2sc3c(c2C(N)=O)CCCC3)cc1OC` gave a remaining activity of 103%.
`Cc1ccc(NC(=O)c2ccc(CN3CCN(C)CC3)cc2)cc1Nc1nc(-c2cccnc2)cs1` has a remaining activity of 99.6%.
The remaining activity of `C#Cc1cccc(Nc2ncnc3cc(OCCOC)c(OCCOC)cc23)c1` is reported as 104%.
For `Cc1cccc(-c2[nH]c(C(C)(C)C)nc2-c2ccc3c(c2)OCO3)n1`, the remaining activity was 103%.
The remaining activity of `COc1cc2ncnc(Nc3ccc(Oc4ccccc4)cc3)c2cc1OC` is reported as 92.6%.
For `COc1cc2nccc(Oc3ccc(NC(=S)NC(=O)c4ccccc4C)cc3)c2cc1OC`, the remaining activity was 81.3%.
With `CN(C)c1ccc(C=C2C(=O)Nc3ccccc32)cc1` the remaining activity was 101%.
For `COc1ccc(OC)c2c(=S)c3ccccc3[nH]c12`, the remaining activity was 107%.
`COc1ccc(CNC(=O)Nc2ncc([N+](=O)[O-])s2)cc1` gave a remaining activity of 110%.
`Nc1[nH]nc2nc3ccccc3nc12` gave a remaining activity of 106%.
With `CCOC(=O)c1c(C)[nH]c(/C=C2\C(=O)Nc3ccccc32)c1C` the remaining activity was 85%.
The remaining activity of `Cn1c2ccccc2c2c3c(c4c5ccccc5n(CCC#N)c4c21)CNC3=O` is reported as 84.2%.
`O=c1c2ccccc2[nH]c(=S)n1CCN1CCC(=C(c2ccc(F)cc2)c2ccc(F)cc2)CC1` has a remaining activity of 107%.
The remaining activity of `OCC(O)CCON=C1C(c2c(O)[nH]c3ccccc23)=Nc2ccccc21` (stereo not shown) is reported as 80.6%.
`CNC(=O)c1cc(Oc2ccc(NC(=O)Nc3ccc(Cl)c(C(F)(F)F)c3)cc2)ccn1` gave a remaining activity of 97.5%.

Study 3
Cell line: A-375
Concentration: 100 µM
Time: 18 h
With `NCCCC[C@H](NC(=O)[C@@H]1CCCN1C(=O)[C@@H]1CSSC[C@H](N)C(=O)N[C@@H](Cc2ccccc2)C(=O)N[C@@H](Cc2ccccc2)C(=O)N[C@@H](CCC(N)=O)C(=O)N[C@@H](CC(N)=O)C(=O)N1)C(=O)NCC(N)=O` the viability was 89.3%.
For `CO[C@H]1/C=C/O[C@@]2(C)Oc3c(C)c(O)c4c(c3C2=O)C2=NC3(CCN(CC(C)C)CC3)NC2=C(NC(=O)/C(C)=C\C=C\[C@H](C)[C@H](O)[C@@H](C)[C@@H](O)[C@@H](C)[C@H](OC(C)=O)[C@@H]1C)C4=O`, the viability was 51.5%.
`CCN(CC)CCOC(=O)C(c1ccccc1)c1ccccc1` gave a viability of 56.3%.
`CCOC(=O)[C@H](CCc1ccccc1)N[C@@H](C)C(=O)N1CCC[C@H]1C(=O)O` gave a viability of 102%.
The viability of `Cc1c(-c2ccc(O)cc2)n(Cc2ccc(OCCN3CCCCCC3)cc2)c2ccc(O)cc12` is reported as 9.94%.
The viability of `CC1(C)S[C@@H]2[C@H](NC(=O)[C@H](N)c3ccc(O)cc3)C(=O)N2[C@H]1C(=O)O` is reported as 86.7% and 96.5%.

Study 4
Technique: exponential regression of PRP log k'
`COCC(=O)OCCCCCC(=O)N[C@H](C(=O)N1C[C@H](O)C[C@H]1C(=O)NCc1ccc(-c2scnc2C)cc1)C(C)(C)C` has a logD (1,9-decadiene/water) of -3.98.
`Cc1ncsc1-c1ccc(CNC(=O)[C@@H]2C[C@@H](O)CN2C(=O)[C@@H](NC(=O)CCCCCNC(=O)CC23C[C@H]4C[C@@H](C2)C[C@@H](C3)C4)C(C)(C)C)cc1` gave a logD (1,9-decadiene/water) of -0.444.
With `COCC(=O)NCCCCCC(=O)N[C@H](C(=O)N1C[C@H](O)C[C@H]1C(=O)NCc1ccc(-c2scnc2C)cc1)C(C)(C)C` the logD (1,9-decadiene/water) was -6.21.
The logD (1,9-decadiene/water) of `CCCCOc1ccc(-c2ccc(C(=O)NCCCCCC(=O)N[C@H](C(=O)N3C[C@H](O)C[C@H]3C(=O)NCc3ccc(-c4scnc4C)cc3)C(C)(C)C)cc2)cc1` is reported as 1.46.
With `Cc1ncsc1-c1ccc(CNC(=O)[C@@H]2C[C@@H](O)CN2C(=O)[C@@H](NC(=O)CCCCCOC(=O)CC23C[C@H]4C[C@@H](C2)C[C@@H](C3)C4)C(C)(C)C)cc1` the logD (1,9-decadiene/water) was 1.96.

Study 5
Structure (SMILES): CC1=C(C#N)[C@@H](c2ccc3[nH]nc(C)c3c2)C(C#N)=C(c2ccc(Cl)cc2)N1
Observed: cell-free assay
Technique: competition with immobilised ligand
Concentration: 1 µM
For Epidermal growth factor receptor (EGFR, Homo sapiens, UniProt P00533, del747-750/T751S): remaining binding read 100%.
For Casein kinase I isoform alpha-like (CSNK1A1L, Homo sapiens, UniProt Q8N752): remaining binding read 100%.
It gave 100% for remaining binding (Serine/threonine-protein kinase STK11 (STK11, Homo sapiens, UniProt Q15831)).
For Mitogen-activated protein kinase kinase kinase 15 (MAP3K15, Homo sapiens, UniProt Q6ZN16): remaining binding read 100%.
Serine/threonine-protein kinase Nek3 (NEK3, Homo sapiens, UniProt P51956) — remaining binding: 100%.

Excerpt of the above (study 3):
For `CO[C@H]1/C=C/O[C@@]2(C)Oc3c(C)c(O)c4c(c3C2=O)C2=NC3(CCN(CC(C)C)CC3)NC2=C(NC(=O)/C(C)=C\C=C\[C@H](C)[C@H](O)[C@@H](C)[C@@H](O)[C@@H](C)[C@H](OC(C)=O)[C@@H]1C)C4=O`, the viability was 51.5%.
`CCN(CC)CCOC(=O)C(c1ccccc1)c1ccccc1` gave a viability of 56.3%.
`CCOC(=O)[C@H](CCc1ccccc1)N[C@@H](C)C(=O)N1CCC[C@H]1C(=O)O` gave a viability of 102%.
The viability of `Cc1c(-c2ccc(O)cc2)n(Cc2ccc(OCCN3CCCCCC3)cc2)c2ccc(O)cc12` is reported as 9.94%.
